Assay results of several laboratories.
Compare with care: the assays were run in different laboratories. Several values in a cell are separate wells, animals, samples, runs or records. ± gives the spread as reported.
Putative glycogen synthase kinase D105E: Putative glycogen synthase kinase (Leishmania major, UniProt Q4QE15, D105E)
Phenylalanine--tRNA ligase alpha subunit: Phenylalanine--tRNA ligase alpha subunit (Plasmodium falciparum, UniProt Q8I246)
ROP18: ROP18 (Toxoplasma gondii, UniProt Q2PAY2)
Chain of UniProt P81908 (whole entry, looked up): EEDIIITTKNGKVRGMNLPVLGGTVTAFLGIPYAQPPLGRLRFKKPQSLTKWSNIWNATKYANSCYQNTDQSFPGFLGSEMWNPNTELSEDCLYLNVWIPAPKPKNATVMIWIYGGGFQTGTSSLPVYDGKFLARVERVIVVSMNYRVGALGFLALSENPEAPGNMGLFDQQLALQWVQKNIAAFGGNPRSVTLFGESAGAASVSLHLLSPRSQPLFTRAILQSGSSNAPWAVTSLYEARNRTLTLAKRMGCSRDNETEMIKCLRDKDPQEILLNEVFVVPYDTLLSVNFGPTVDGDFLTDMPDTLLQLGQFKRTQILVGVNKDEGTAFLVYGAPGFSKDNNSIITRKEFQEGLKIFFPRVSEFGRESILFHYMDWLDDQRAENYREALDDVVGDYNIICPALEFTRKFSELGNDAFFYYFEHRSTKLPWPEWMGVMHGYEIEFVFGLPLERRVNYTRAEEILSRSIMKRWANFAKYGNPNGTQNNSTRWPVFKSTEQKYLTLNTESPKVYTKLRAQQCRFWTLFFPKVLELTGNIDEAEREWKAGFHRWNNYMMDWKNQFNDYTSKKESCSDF
Chain of UniProt Q2PAY2 (whole entry, looked up): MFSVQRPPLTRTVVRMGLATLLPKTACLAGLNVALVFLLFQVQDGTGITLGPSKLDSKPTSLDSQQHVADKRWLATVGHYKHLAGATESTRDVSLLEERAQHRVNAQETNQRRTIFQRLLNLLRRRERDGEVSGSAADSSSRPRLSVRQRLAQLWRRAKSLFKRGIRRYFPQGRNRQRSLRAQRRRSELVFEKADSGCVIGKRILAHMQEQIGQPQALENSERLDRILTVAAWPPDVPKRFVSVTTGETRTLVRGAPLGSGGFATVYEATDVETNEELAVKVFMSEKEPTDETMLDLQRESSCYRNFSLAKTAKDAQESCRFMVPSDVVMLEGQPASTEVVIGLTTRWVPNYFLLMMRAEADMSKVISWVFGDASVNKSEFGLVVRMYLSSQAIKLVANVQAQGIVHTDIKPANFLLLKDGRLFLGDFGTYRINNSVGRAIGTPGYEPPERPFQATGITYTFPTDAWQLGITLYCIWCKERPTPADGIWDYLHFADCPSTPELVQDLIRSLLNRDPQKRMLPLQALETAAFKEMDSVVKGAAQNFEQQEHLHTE
Chain of UniProt Q16678 (whole entry, looked up): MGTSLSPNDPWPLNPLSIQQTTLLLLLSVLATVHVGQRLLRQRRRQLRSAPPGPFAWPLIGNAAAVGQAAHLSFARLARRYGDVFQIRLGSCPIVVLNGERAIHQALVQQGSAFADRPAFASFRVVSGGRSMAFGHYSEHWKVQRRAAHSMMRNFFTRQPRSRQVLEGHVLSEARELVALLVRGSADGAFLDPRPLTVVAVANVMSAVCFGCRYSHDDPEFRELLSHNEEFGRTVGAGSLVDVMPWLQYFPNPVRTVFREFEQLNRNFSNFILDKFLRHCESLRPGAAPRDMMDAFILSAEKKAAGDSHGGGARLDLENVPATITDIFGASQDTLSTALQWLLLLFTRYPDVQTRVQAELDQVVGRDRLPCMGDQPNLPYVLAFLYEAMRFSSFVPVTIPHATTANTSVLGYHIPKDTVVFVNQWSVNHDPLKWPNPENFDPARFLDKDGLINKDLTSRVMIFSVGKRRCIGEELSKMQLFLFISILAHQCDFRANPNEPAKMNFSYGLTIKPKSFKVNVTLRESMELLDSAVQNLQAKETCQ
Chain of UniProt O43463 (whole entry, unmodified, looked up): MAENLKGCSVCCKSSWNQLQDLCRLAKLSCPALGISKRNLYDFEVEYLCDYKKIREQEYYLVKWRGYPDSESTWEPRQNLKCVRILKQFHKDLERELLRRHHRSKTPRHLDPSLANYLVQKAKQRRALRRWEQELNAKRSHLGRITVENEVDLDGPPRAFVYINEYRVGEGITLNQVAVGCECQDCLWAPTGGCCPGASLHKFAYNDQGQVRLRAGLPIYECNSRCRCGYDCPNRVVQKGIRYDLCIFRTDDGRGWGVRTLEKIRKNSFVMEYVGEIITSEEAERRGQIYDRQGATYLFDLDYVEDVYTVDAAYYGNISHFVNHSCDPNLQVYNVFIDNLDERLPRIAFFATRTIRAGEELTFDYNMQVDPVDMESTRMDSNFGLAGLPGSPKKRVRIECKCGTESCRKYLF
Chain of UniProt Q06124 (whole entry, looked up): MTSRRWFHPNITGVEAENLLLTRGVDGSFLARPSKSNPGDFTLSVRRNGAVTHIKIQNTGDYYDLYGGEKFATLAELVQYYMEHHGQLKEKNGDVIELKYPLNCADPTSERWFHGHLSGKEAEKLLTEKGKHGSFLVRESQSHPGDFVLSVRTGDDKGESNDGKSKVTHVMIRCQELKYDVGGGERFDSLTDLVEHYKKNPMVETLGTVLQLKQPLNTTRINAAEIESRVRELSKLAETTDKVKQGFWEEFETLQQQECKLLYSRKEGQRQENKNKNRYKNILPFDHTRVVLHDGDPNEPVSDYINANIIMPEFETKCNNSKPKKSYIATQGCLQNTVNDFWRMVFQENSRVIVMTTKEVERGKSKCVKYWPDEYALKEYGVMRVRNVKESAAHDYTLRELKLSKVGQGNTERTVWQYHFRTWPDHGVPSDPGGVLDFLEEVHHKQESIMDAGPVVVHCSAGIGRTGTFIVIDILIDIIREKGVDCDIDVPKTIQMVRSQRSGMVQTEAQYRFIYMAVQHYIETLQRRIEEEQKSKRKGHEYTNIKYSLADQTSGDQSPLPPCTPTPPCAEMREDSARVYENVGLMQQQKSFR
Chain of UniProt Q9Y6L6 (whole entry, looked up): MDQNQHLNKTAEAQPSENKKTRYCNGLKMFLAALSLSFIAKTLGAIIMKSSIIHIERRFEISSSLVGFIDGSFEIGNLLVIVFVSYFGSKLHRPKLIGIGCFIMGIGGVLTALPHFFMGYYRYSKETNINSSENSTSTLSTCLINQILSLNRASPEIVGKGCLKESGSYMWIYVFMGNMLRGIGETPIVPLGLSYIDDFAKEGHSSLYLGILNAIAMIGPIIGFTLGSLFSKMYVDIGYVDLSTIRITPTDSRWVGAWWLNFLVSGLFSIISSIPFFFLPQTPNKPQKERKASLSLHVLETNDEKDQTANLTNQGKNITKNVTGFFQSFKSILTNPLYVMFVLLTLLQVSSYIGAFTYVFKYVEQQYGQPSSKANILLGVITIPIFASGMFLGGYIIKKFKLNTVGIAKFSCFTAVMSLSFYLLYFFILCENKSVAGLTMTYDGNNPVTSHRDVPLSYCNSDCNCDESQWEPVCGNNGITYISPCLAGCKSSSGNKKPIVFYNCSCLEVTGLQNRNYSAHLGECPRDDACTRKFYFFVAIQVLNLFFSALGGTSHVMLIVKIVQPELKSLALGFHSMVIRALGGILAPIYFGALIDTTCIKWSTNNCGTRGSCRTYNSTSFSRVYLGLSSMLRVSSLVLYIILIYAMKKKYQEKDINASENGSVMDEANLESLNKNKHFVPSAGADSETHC
Chain of UniProt P12390 (whole entry, looked up): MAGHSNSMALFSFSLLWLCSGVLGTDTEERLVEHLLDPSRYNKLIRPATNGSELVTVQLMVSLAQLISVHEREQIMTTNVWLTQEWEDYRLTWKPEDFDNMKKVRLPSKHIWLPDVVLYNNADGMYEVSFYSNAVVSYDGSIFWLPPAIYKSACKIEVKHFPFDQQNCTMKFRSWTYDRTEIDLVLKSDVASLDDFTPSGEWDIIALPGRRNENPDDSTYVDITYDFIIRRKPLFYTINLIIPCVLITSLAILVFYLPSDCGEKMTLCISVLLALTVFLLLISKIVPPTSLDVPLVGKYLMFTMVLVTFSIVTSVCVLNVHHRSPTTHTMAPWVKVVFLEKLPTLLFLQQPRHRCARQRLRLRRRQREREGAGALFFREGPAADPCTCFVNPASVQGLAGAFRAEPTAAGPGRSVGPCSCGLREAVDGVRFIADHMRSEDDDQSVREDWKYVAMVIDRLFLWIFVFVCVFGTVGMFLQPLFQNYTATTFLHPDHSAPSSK
Chain of UniProt O35433 (whole entry, looked up): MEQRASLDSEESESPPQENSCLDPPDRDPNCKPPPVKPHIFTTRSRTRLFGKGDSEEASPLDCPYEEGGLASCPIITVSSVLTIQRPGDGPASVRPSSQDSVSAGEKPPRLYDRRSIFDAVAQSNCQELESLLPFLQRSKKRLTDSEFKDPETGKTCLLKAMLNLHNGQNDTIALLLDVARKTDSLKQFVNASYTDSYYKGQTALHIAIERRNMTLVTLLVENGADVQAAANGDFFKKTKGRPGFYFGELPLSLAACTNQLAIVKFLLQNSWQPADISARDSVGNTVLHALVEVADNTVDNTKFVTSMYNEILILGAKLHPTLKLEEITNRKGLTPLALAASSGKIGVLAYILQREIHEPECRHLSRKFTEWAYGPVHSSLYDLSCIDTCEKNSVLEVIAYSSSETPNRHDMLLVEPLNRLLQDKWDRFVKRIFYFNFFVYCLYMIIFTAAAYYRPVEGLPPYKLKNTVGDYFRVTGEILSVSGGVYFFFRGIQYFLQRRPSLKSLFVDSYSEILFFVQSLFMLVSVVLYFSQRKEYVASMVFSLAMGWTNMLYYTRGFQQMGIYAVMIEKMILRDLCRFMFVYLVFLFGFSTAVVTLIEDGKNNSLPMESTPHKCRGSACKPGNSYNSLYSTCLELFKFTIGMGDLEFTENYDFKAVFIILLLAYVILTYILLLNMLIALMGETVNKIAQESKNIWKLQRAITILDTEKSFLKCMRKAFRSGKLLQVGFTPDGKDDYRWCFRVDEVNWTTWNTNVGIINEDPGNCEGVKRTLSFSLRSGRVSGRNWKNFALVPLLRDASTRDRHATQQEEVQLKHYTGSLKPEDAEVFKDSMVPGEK
Chain of UniProt A4X744 (whole entry, looked up): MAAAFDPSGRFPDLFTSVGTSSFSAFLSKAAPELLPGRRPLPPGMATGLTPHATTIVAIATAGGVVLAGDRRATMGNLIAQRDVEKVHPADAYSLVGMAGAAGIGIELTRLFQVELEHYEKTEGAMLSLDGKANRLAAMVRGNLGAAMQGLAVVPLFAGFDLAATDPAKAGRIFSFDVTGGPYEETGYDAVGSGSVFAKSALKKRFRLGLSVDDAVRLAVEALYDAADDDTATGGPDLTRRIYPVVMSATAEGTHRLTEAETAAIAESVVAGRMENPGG

| Compound | target | assay | system | setting | IC50 |
| --- | --- | --- | --- | --- | --- |
| O=C([O-])[C@H]([O-])[C@@H]([O-])C(=O)[O-].O=C([O-])[C@H]([O-])[C@@H]([O-])C(=O)[O-].[K+].[K+].[Sb+3].[Sb+3] | Thioredoxin glutathione reductase (Schistosoma mansoni, UniProt Q962Y6) | glutathione reductase activity, inhibitor | – | 10 min preincubation with NADPH, with: 100 µM GSSG | 0.008 µM |
| CC(C)C[C@H](NC(=O)[C@H](Cc1ccccc1)NC(=O)c1cnccn1)B(O)O | Proteasome subunit beta 2, alpha/beta1 complex (prcB2, Salinispora tropica, UniProt A4X744) | – | – | – | 3.3 ± 0.2 µM |
| CC[C@@]1(O)C(=O)OCc2c1cc1n(c2=O)Cc2cc3ccccc3nc2-1 | ERRα (human) | reporter gene, antagonist, luciferase reporter qHTS | – | – | 0.12 µM |
| O=C(NCCCCCCCn1ccc2ccc(F)cc21)Oc1ccccc1 | Cholinesterase (BCHE, Equus caballus, UniProt P81908) | enzyme activity, inhibitor, HPLC | – | – | 3.5 µM and ~4 µM |
| CC1=C(C(=O)NC(=O)c2cnccn2)C(c2ccc(Cl)cc2)NC(=S)N1 (centres unmarked) | Cholinesterase (BCHE, Equus caballus, UniProt P81908) | – | – | – | 4.13 ± 0.01 µM |
| CN1C(=O)[C@]23SS[C@@]1(C)C(=O)N2[C@H]1Nc2ccccc2[C@@]1([C@@]12c4ccccc4N[C@@H]1N1C(=O)[C@@]4(C)SS[C@]1(C(=O)N4C)[C@H]2O)[C@@H]3O | SUV39H1 (Homo sapiens, UniProt O43463) | enzyme activity, inhibitor, radiometric | – | – | 0.573 µM |
| N#CCCc1ccc2c(c1)-c1[nH]c3ccc([N+](=O)[O-])cc3c1CC(=O)N2 | Putative glycogen synthase kinase D105E | enzyme activity, inhibitor | – | 90 min, 30 °C, with: ATP 2 µM | 4.76 µM |
| COc1ccc(NC(=O)N2CCCN3[C@H](CO)[C@H](c4ccc(C#Cc5ccccc5)cc4)[C@@H]3C2)cc1 | Phenylalanine--tRNA ligase alpha subunit | aminoacylation activity, inhibitor | – | – | 0.366 µM |
| Cc1cncc(OC(=O)NCCCCCn2ccc3ccc(F)cc32)c1 | Cholinesterase (BCHE, Equus caballus, UniProt P81908) | enzyme activity, inhibitor, HPLC | – | – | 0.24 µM |
| O=C1Nc2ccccc2/C1=C/c1cnc[nH]1 | Putative glycogen synthase kinase (Leishmania major, UniProt Q4QE15, D105E/Y102F) | enzyme activity, inhibitor | – | 90 min, 30 °C, with: ATP 2 µM | 6.76 µM |
| CC1=C(C(=O)NC(=O)c2cnccn2)C(c2ccccc2)NC(=S)N1 (centres unmarked) | Cholinesterase (BCHE, Equus caballus, UniProt P81908) | – | – | – | 6.75 ± 0.01 µM |
| Fc1ccc2c(C3CCN(CCCCN4CCCCC4)CC3)noc2c1 | HTR2A (Homo sapiens, UniProt P28223) | calcium signal, antagonist | – | – | 43.9 µM |
| COc1ccc(CCN2CCN(c3ccccc3OC)CC2)cc1OC | Cytochrome P450 2D6 (CYP2D6, Homo sapiens, UniProt P10635) | enzyme activity, inhibitor | human, liver microsomes | – | > 100 µM |
| COc1cc2c(cc1O)CC[n+]1cc3c(OC)c(OC)ccc3c(C)c1-2 | DRD2 (Homo sapiens, UniProt P14416) | calcium mobilization, antagonist, FLIPR | HEK293T with Galpha15 | 10 min preincubation, D2 receptor, with: dopamine at EC50 | 0.52 µM |
| O=c1[nH]ccc2nc(NC3CCCNC3)nc(Nc3ccc(S(=O)(=O)N4CCOCC4)cc3)c12 (centres unmarked) | ROP18 | enzyme activity, inhibitor | – | – | 0.3 µM |
| C[C@@H]1CC[C@]2(C(=O)O[C@@H]3O[C@H](CO)[C@@H](O)[C@H](O)[C@H]3O)CC[C@]3(C)C(=CC[C@@H]4[C@@]5(C)C[C@@H](O)[C@H](O)[C@@](C)(CO)[C@@H]5CC[C@]43C)[C@@H]2[C@]1(C)O | acetylcholinesterase | inhibitor, Ellman | – | 20 min pre-incubation, 30 min, pH 7.4, with: acetylthiocholine | 45.5 µg/mL |
| O=C1C=Cc2ccccc2C1=O | PTPN2 (Homo sapiens, UniProt P17706) | enzyme activity | – | 10 min preincubation | 0.053 µM |
| C=C1C(=O)N[C@@H](C)C(=O)N(C)[C@@H](C)C(=O)N[C@@H]([C@H](OC(=O)[C@@H](NC(=O)CC)[C@H](O)C(C)C)C(C)C)C(=O)N(C)[C@@H]([C@@H](C)OC)C(=O)O[C@H](C(C)C)[C@H](NC(C)=O)C(=O)O[C@H](Cc2ccccc2)C(=O)N1C | Gnaq, with RGS2 (Mus musculus, UniProt P21279, Q209L) | RGS2–Gαq association, inhibitor, split-luciferase complementation | HEK293 | 18 h, constitutively active Gαq Q209L | 0.0004 µM |
| Cc1ccc2cc3c(ccc4ccccc43)c3c2c1CC3 | Cytochrome P450 1B1 (CYP1B1, Homo sapiens, UniProt Q16678) | enzyme activity, inhibitor | – | 5 s, pH 7.4 | < 0.05 µM |
| CCCCCCCC(=O)SCC/C=C/[C@@H]1CC(=O)NCc2nc(cs2)C2=N[C@@](C)(CS2)C(=O)N[C@@H](C(C)C)C(=O)N1 | HDAC1 (Homo sapiens, UniProt Q13547) | inhibitor | – | – | > 3 µM |
| COc1ccc(NC(=O)N2CCCCN3[C@H](CO)[C@H](c4ccc(C#CC5CC5)cc4)[C@@H]3C2)cc1 | Phenylalanine--tRNA ligase alpha subunit | aminoacylation activity, inhibitor | – | – | 23.4 µM |
| O=C(OC(C(F)(F)F)C(F)(F)F)N1CCC(C(O)(c2ccc3c(c2)OCO3)c2ccc3c(c2)OCO3)CC1 | Faah (Mus musculus, UniProt O08914) | competitive ABPP | mouse brain membrane proteome | – | > 50 µM |

| Compound | target | assay | system | setting | IC50 |
| --- | --- | --- | --- | --- | --- |
| CSCC[C@H](NC(=O)[C@H](C)N)C(=O)N[C@@H](CCCNC(=N)N)C(=O)N[C@@H](CCC(N)=O)C(=O)N[C@H](C(=O)N[C@@H](Cc1c[nH]cn1)C(=O)N[C@@H](CC(N)=O)C(=O)N[C@@H](Cc1ccccc1)C(=O)N[C@@H](Cc1ccccc1)C(=O)N[C@@H](Cc1ccccc1)C(=O)N[C@@H](CC(N)=O)C(=O)N[C@@H](Cc1ccccc1)C(=O)N[C@@H](Cc1ccccc1)C(=O)N[C@@H](CCCCN)C(=O)N[C@@H](CCCNC(=N)N)C(=O)N[C@@H](CCCNC(=N)N)C(=O)O)[C@@H](C)O | histidine kinase ComD (Streptococcus pneumoniae serotype 4, UniProt A0A0H2US84) | reporter gene, antagonist | Streptococcus pneumoniae, TIGR4 comX::lacZ | 30 min, 37 °C, with: CSP2 250 nM | > 10 µM |
| CCCc1nn(C)c2c(=O)[nH]c(-c3cc(S(=O)(=O)N4CCN(C)CC4)ccc3OCC)nc12 | SLCO1B1 (Homo sapiens, UniProt Q9Y6L6) | transport, inhibitor | – | 10 (unit not given), pre-incubation, with: estrone-3-sulfate | 13.3 ± 2.2 µM |
| O=C(O)c1ccccc1-c1c2ccc(=O)c([As]3SCCS3)c-2oc2c([As]3SCCS3)c(O)ccc12 | PTPN11 (Homo sapiens, UniProt Q06124) | enzyme activity, inhibitor | catalytic domain | 120 min preincubation, with: pNPP | 0.053 µM |
| C/C=C1\NC(=O)C(NC(=O)[C@H](CC[S+](C)[O-])NC(=O)[C@@H](NC(=O)CCC)[C@@H](C)CC)C(C)OC(=O)[C@H](C(C)C)NC(=O)[C@H](Cc2ccc(O)cc2)N(C)C(=O)[C@H](Cc2ccccc2)N2C(=O)[C@H](CCC2O)NC1=O (some centres unmarked) | Proteinase K (PROK, Engyodontium album, UniProt P06873) | enzyme activity, inhibitor, fluorescence | – | pH 7.4 | 0.216 µM |
| COc1c(C[C@@H](O)C(C)(C)O)c(=O)n(C)c2ccccc12 | ACHE (Homo sapiens, UniProt P22303) | enzyme activity, inhibitor | – | – | > 500 µM |
| Nc1ncnc2c1ncn2[C@@H]1O[C@H](COP(=O)(O)O)[C@@H](OP(=O)(O)O)[C@H]1O | sfp (Bacillus subtilis, UniProt P39135) | phosphopantetheinylation, inhibitor, fluorescence polarization | – | 45 min, pH 7.6, 10% DMSO, with: VibB 10 µM and rhodamine-CoA 5 µM | 7 ± 1 µM |
| O=Cc1ccc2cccc(O)c2n1 | Cholinesterase (BCHE, Homo sapiens, UniProt P06276) | enzyme activity, inhibitor, Ellman | – | – | 5.26 µM |
| N.N.[Cl][Pt][Cl] | Carbamate kinase (Giardia intestinalis, UniProt A8BB85) | enzyme activity, ATP luminescence | – | – | 5.17 µM |
| O=[N+]([O-])c1ccc(CSc2ncnc3c2ncn3[C@@H]2O[C@H](CO)[C@@H](O)[C@H]2O)cc1 | SLC29A4 (Homo sapiens, UniProt Q7RTT9) | transporter uptake, inhibitor, radiometric | – | – | 16.8 µM |
| c1cc(OC[C@@H]2CCCN2)ccn1 | Neuronal acetylcholine receptor; alpha4/beta2 (Rattus norvegicus, UniProt P09483+P12390) | ligand displacement, radioligand | – | cell membranes | 303 µM |
| Oc1ccc(-c2ccc(Cl)cc2)cc1 | Sulfotransferase 2A6 (Sult2a6, Rattus norvegicus, UniProt P22789) | enzyme activity, inhibitor | – | 6 min, 37 °C, with: DHEA 10 µM | 160 µM |
| CS(=O)(=O)Cc1ccc(Nc2nccc(-c3c(-c4cccc(NC(=O)c5c(F)cccc5F)c4)nn4ccccc34)n2)cc1 | ROP18 | enzyme activity, inhibitor | – | – | 0.44 µM |
| CC(C)(O/N=C(\C(=O)N[C@@H]1C(=O)N2C(C(=O)[O-])=C(C[n+]3ccccc3)CS[C@H]12)c1csc(N)n1)C(=O)O | mrcB (Pseudomonas aeruginosa, UniProt G3XD31) | ligand displacement, fluorescence | – | cell membranes | 7.14 µM |
| C=CCC[C@](C)(NC(=O)[C@H](CC(C)C)NC(=O)[C@H](CCCCN)NC(=O)[C@H](CC(C)C)NC(=O)[C@](C)(CCC=C)NC(=O)[C@H](Cc1ccccc1)NC(=O)[C@H](Cc1ccc(O)cc1)NC(=O)[C@H](C)NC(=O)[C@@H](N)[C@@H](C)O)C(=O)NCC(=O)N[C@@H](CCCNC(=N)N)C(=O)N[C@@H](Cc1c[nH]c2ccccc12)C(N)=O | PC4 and SFRS1-interacting protein, with HIV integrase (Homo sapiens, UniProt O75475) | LEDGF/p75-integrase interaction, inhibitor | – | – | 20 µM |
| CCN1C[C@H](C)n2c(c(O)c3c(=O)n(Cc4ccc(F)c(Cl)c4)nc(C(=O)NC)c32)C1=O | Gag-Pol polyprotein, integrase (gag-pol, Human immunodeficiency virus 1, UniProt P12497) | enzyme activity, inhibitor | – | – | 0.042 µM |
| Nc1cccc2c1C(=O)c1cccc(N)c1C2=O | mRNA triphosphatase Cet1 (Trypanosoma brucei brucei, UniProt Q582T2) | enzyme activity, Transcreener ADP fluorescence polarization | – | 3 h, with: 50 µM ATP | 4.7 µM |
| CCC(=O)Nc1cc(Nc2cc(NC3CC3)n3ncc(C#N)c3n2)ccc1N(C)CCN | CSNK2A2 (Homo sapiens, UniProt P19784) | target engagement in cells, BRET | – | – | 0.002 µM |
| [Cd+2] | Trpv1 (Rattus norvegicus, UniProt O35433) | transporter uptake, inhibitor, radiometric | – | – | 38 µM |
| NC(=O)c1cccc(-c2cccc(OC(=O)NC3CCCCC3)c2)c1 | Cholinesterase (BCHE, Equus caballus, UniProt P81908) | enzyme activity, inhibitor, HPLC | – | – | > 10 µM |
| C[C@@H]1C[C@H]2[C@@H]3CCC4=CC(=O)C=C[C@]4(C)[C@@]3(Cl)[C@@H](O)C[C@]2(C)[C@@]1(OC(=O)c1ccco1)C(=O)CCl | ABCC1 (Homo sapiens, UniProt P33527) | efflux, inhibitor, flow cytometry | SupT1 cells overexpressing ABCC1 | with: DiIC1(5) 100 nM | 3.9 ± 2.2 µM |
| C[C@H]1C[C@H]2[C@@H]3CCC4=CC(=O)C=C[C@]4(C)[C@@]3(Cl)[C@@H](O)C[C@]2(C)[C@@]1(O)C(=O)CO | ABL1 (Homo sapiens, UniProt P00519) | kinase activity, ADP luminescence | – | with: 200 µM ATP | > 10 µM |
| Cn1cc(C2=C(c3cn(CCCN)c4ccccc34)C(=O)NC2=O)c2ccccc21 | Putative glycogen synthase kinase D105E | enzyme activity, inhibitor | – | 90 min, 30 °C, with: ATP 2 µM | 1.55 µM |

Excerpt of the above:
| Compound | target | assay | system | setting | IC50 |
| --- | --- | --- | --- | --- | --- |
| COc1c(C[C@@H](O)C(C)(C)O)c(=O)n(C)c2ccccc12 | ACHE (Homo sapiens, UniProt P22303) | enzyme activity, inhibitor | – | – | > 500 µM |
| Cn1cc(C2=C(c3cn(CCCN)c4ccccc34)C(=O)NC2=O)c2ccccc21 | Putative glycogen synthase kinase D105E | enzyme activity, inhibitor | – | 90 min, 30 °C, with: ATP 2 µM | 1.55 µM |
| Fc1ccc2c(C3CCN(CCCCN4CCCCC4)CC3)noc2c1 | HTR2A (Homo sapiens, UniProt P28223) | calcium signal, antagonist | – | – | 43.9 µM |
| O=C([O-])[C@H]([O-])[C@@H]([O-])C(=O)[O-].O=C([O-])[C@H]([O-])[C@@H]([O-])C(=O)[O-].[K+].[K+].[Sb+3].[Sb+3] | Thioredoxin glutathione reductase (Schistosoma mansoni, UniProt Q962Y6) | glutathione reductase activity, inhibitor | – | 10 min preincubation with NADPH, with: 100 µM GSSG | 0.008 µM |
| Nc1ncnc2c1ncn2[C@@H]1O[C@H](COP(=O)(O)O)[C@@H](OP(=O)(O)O)[C@H]1O | sfp (Bacillus subtilis, UniProt P39135) | phosphopantetheinylation, inhibitor, fluorescence polarization | – | 45 min, pH 7.6, 10% DMSO, with: VibB 10 µM and rhodamine-CoA 5 µM | 7 ± 1 µM |
